Literature values as cited in several papers.
Compare with care: the assays were run in different laboratories.
Chain of UniProt P33535 (whole entry, looked up): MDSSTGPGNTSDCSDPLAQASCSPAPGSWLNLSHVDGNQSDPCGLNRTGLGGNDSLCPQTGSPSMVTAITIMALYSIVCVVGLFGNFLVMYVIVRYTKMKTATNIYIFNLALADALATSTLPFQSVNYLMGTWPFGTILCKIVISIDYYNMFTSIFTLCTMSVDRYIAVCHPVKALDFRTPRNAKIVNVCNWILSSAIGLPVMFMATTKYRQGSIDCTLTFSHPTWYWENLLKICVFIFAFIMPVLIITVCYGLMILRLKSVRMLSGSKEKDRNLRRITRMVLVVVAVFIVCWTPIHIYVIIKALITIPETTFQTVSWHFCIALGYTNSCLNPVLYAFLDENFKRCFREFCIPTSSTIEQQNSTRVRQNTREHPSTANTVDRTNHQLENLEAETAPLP
Chain of UniProt P30542 (whole entry, looked up): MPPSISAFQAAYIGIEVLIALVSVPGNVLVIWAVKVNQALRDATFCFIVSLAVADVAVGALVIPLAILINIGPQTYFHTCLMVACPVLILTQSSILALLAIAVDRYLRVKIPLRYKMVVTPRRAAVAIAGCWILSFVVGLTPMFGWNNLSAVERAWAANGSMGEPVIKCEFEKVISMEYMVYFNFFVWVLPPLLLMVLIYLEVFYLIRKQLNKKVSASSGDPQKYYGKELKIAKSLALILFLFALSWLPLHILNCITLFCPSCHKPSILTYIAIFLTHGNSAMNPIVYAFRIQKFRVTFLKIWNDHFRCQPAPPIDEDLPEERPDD

With `H-Bcp-Tic-OH` the selectivity ratio was 3510 (Oprm1 (Rattus norvegicus, UniProt P33535); binding; reference: Ki mu over Ki delta).
`R(-)-PIA` has an IC50 of 0.83 µM (ADORA1 (Homo sapiens, UniProt P30542)).
`maraviroc` has an AUC ratio of 8 to 26 (human; reference: rectal tissue over blood plasma).
`buprenorphine` has an AUC(0-24h) increase of 325% (human; dose not given, together with: delavirdine; reference: compound alone).
For `buprenorphine`, the half-life was 32 h.

A few entries again:
`R(-)-PIA` has an IC50 of 0.83 µM (ADORA1 (Homo sapiens, UniProt P30542)).
